# Experimental data of several laboratories.
# A part holds a random share of what one study measured. Substitutions count along the parent as printed.

# Block 1 — technique: DHFR PCA, deep sequencing; medium: yeast; together with: (+)-ABA 200 µM; baseline: wild-type fitted maximum; direction: higher = stronger binding
# Target: ABI1, truncated, D143A, DHFR fusion (Arabidopsis thaliana)
# Notes: methotrexate growth selection, single substitutions
# Starting sequence: PYL1, truncated, DHFR fusion (Arabidopsis thaliana); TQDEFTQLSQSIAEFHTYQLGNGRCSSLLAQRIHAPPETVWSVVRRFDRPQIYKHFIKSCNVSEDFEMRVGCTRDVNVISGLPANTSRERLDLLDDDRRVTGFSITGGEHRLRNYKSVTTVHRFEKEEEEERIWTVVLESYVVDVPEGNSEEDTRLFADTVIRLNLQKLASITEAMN; partner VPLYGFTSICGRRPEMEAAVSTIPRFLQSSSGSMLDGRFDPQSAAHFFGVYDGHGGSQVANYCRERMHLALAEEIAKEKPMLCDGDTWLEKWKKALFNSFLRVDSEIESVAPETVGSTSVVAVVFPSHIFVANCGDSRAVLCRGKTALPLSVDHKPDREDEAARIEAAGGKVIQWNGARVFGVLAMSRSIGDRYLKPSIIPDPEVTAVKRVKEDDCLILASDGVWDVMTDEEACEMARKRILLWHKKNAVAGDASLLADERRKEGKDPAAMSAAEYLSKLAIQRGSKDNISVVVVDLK
Change,relative binding score [%]
M176C,93.2
E147T,92.2
L93T,102
V118P,7.99
V137N,-22.2
E64F,91.3
T173L,82.7
L166K,-2.07
R49F,86.6
D3G,93.8
Q31T,70
K116G,52.6
G81N,24.3
G71S,67.9

# Block 2 — technique: universal PBM; molecule type: double-stranded DNA, one strand shown; medium: in vitro; tested at: not given; direction: higher = stronger binding
# Target: Sal-like protein 4, full length isoform B (SALL4, Homo sapiens, UniProt Q9UJQ4-2, residues 1-616)
# Notes: 8-mer, flanks averaged, mean of replicates
Sequence,E-score
ATTCCCGA,-0.0786
TACCTACA,0.128
ACACGTCG,-0.13
CGTACTTA,0.105
ACGGTGTA,0.0192
CAAGTGCA,-0.0223
AGGCTACT,0.0215
ACCAGCCG,-0.313
CCTATCCG,-0.218
ACACTATA,0.261
AGATGAGG,-0.105
TAGTTACA,0.069
GTGCTCAA,-0.013
GAAACCAA,-0.0133
AGGCCTCG,-0.348
AATCTCCG,-0.191
TTCGGAAA,-0.0489
GTTTATTA,0.396
AGGCGCTA,-0.0303

# Block 3 — technique: RNA Bind-n-Seq; molecule type: RNA; medium: in vitro; tested at: 200 nM; notes: whole 134-nt RNA, ends assumed; together with: 150 mM LiCl; baseline: input library; direction: higher = stronger binding; each molecule: 7-deaza-guanosine replaces G
# Target: Fragile X messenger ribonucleoprotein 1, C-terminal low-complexity region (Fmr1, Mus musculus, UniProt P35922)
# All sequences stand within: GGGAGUUCUACAGUCCGACGAUC … UGGAAUUCUCGGGUGUCAAGG
Sequence,log2 enrichment
CGCUAAAGAGGAGCACGGUGGACUGAUGUGAGCUUCUCUUCCUGCCCCUUCCUCCCUGAUGUCCACUCCCUUCACCUUCCUCACGCCCGU,2.06
CCUCAAGUCCUGUGCUACACAUCGUAUGUACCGAAUCGGGAAGGGAAGGAAGGAAAGUAUUAUGUUACGCCGUUCGGAUCUGCACUUCCA,-1.69
AAGUCCUGUGCUACACAUCGUAUGUACCGAAUCGGUUUGGUUUUUGGUUUUUUUGGAAAGUAUUAUGUUACGCCGUUCGGAUCUGCACUU,-1.95
GCAGGAAGUAAAAACAAAUGGAAAUGCUUCGGAUAGUGGCAGGGGUGGGGGUUGAUAAGGAAAGGGUGGGAUGGGAGUGGGUAAAGAGUU,1.37
UAACUUUAGAGGAGGAUCUGAUGGAUAUGGCAGUGGACGUGGAUUUGGGGAUGGCUAAAAUGGGUAUGGAGGAGGACCUGGAGGUGGCAA,0.667
UCCUCAAGUCCUGUGCUACACAUCGUAUGUACCGAAUCGGGAGGAGGGAGGGAAAGUAUUAUGUUACGCCGUUCGGAUCUGCACUUCCAG,-0.997
GUCCUGUGCUACACAUCGUAUGUACCGAAUCGGGGAAAAAGGGGUUUGGGGUUUGGGGAAAGUAUUAUGUUACGCCGUUCGGAUCUGCAC,-1.17
UCAAGUCCUGUGCUACACAUCGUAUGUACCGAAUCGGUUUGGUGGAAAAAAAGGAAAGUAUUAUGUUACGCCGUUCGGAUCUGCACUUCC,-0.459
AAGUCCUGUGCUACACAUCGUAUGUACCGAAUCGGGAAAAAGGAAAAAGGAAAAAGGAAAGUAUUAUGUUACGCCGUUCGGAUCUGCACU,-0.872
CACAGACAACACGCACCCACACAGACACAGAGGGAAGGGGUUGGGAUGGGUACAGGGUGCACAGCAGGGCGGGGUAGGACCCCAGCCCCU,0.122
AAGUCCUGUGCUACACAUCGUAUGUACCGAAUCGGCCCCGGGCCCCGGGCCCCGGGAAAGUAUUAUGUUACGCCGUUCGGAUCUGCACUU,-2.6

# Block 4 — technique: aptamer microarray, sandwich; molecule type: DNA with 2'F-ANA; medium: in vitro; tested at: 200 nM; together with: Cy3 exosite-II aptamer, 400 nM; direction: higher = stronger binding; sequence: GGTTGGTGTGGTTGG
# Target: Prothrombin, mature alpha-thrombin (F2, Homo sapiens, UniProt P00734)
# Notes: whole 15-mer aptamer, many near background
Modification,mean fluorescence intensity [a.u.]
2'F-ANA at 3 4 5 6 9 10 12 15,58.4
2'F-ANA at 1 4 5 9 10 11 13 15,45.6
2'F-ANA at 3 6 7 9 12 13 15,953
2'F-ANA at 2 3 5 7 8 9 12 13 14,59.1
2'F-ANA at 6 9 10 12 13 14 15,110
2'F-ANA at 1 4 7 8 9 11 12 15,196
2'F-ANA at 2 3 4 5 6 7 10 11 12,54.3
2'F-ANA at 2 3 6 8 9 13 14 15,307
2'F-ANA at 1 2 4 5 6 7 12 13 14,51.1

# Block 5 — target: CCNF, cyclin fold, Cln2 fusion (human); technique: yeast growth competition, sequencing; medium: yeast; notes: strong parent motif; baseline: not given; direction: higher = stronger binding
# Starting sequence: RB1 docking peptide (human); PKPLKKLRFDIEG
Change,normalised enrichment score
I11W,1.58
F9I,-0.525
E12R,1.12
F9Q,0.93
L7M,0.382
K2Y,2.71
I11F,1.34
L4H,2.1
E12T,1.31
D10C,1.36
D10K,1.71
L4S,2.65
D10S,0.953

# Block 6 — technique: protein binding microarray; molecule type: double-stranded DNA, one strand shown; medium: in vitro; tested at: not given; baseline: not given; direction: higher = stronger binding
# Target: Histone acetyltransferase KAT6A, winged helix 2, GST fusion (KAT6A, Homo sapiens, UniProt Q92794, residues 85-181)
# Notes: 8-mer, flanks averaged, mean of 2 arrays, mostly near background
# Construct (chain): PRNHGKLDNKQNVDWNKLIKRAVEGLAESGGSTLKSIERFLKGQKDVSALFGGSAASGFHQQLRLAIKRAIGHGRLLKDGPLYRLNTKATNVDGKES
Sequence,E-score
CCATTGTC,-0.124
CGATCGCC,0.0491
AACTGTAA,-0.00983
AGCCAGTG,-0.131
ATGTATGC,0.0483
AGCCGGTA,0.132
CACTTCCG,-0.13
CCATCAAC,-0.0323
ATCCGGTC,0.0138
GCCCGTCC,-0.0718
TAGTGTGA,-0.111
AAATGATG,-0.0185
CATGATGA,-0.108
GTTTCGCA,-0.18
ATACCTCC,-0.0441

# Block 7 — technique: RNA Bind-n-Seq; molecule type: RNA; medium: in vitro; tested at: not given; notes: RNA with constant flanks, ends assumed; baseline: input RNA pool; direction: higher = stronger binding
# Target: RING finger protein unkempt homolog, zinc fingers 1-6, GST-SBP tag (UNK, Homo sapiens, UniProt Q9C0B0, residues 30-357)
# All sequences stand within: GGGAGUUCUACAGUCCGACGAUC … CAACAGAGGAUUGAGCAUCA
# Target sequence (chain): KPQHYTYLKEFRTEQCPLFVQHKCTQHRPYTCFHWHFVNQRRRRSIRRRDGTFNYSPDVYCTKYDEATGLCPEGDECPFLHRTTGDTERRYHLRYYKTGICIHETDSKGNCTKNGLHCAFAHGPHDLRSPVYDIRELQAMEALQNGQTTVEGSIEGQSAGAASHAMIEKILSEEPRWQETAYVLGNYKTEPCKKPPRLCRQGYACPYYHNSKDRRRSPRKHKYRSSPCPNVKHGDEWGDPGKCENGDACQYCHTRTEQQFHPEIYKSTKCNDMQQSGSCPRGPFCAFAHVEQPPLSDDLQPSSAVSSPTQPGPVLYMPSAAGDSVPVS
Sequence,bound/input enrichment
CAUGCAGUUGUGGUCAAUAUUGUGGUAAUCGCUAAUUGUACUGAUUGUUUAAGUGUGCAUCCGUUGUGUCUCCCCAGCUAGAUUGUAAGCUCCUGGAGGACAGGGACCACCUCUACAAAA,0.215 ratio
CUUUGAGGUAAGAAAAAUGCAACCUGGACUGAUGGAUGUGUGACCCCUUGUCACCAAUGGACCCGCCUGUGACAGCCACAUCUCCAGCAUCACAACGCAGGGUCACUGCCCCAUGGUUCU,0.0961 ratio
CUGCAGCUAACGUCUCCCACUGACUACUCCAUUUUUGAUAACUAUUACAUCCCUGAAAUCACCCGUGUUUUGCUGUUGCGAUCCUGUAAGACUUUAACCCAUGAGAUCGGACACAUACUU,0.413 ratio
GCUUCAGAUGACAUGACUGUGGUAGAUGCAGCUUCAUUAAGACGUCAGAUAAUCAAAUUAAACCGACGUCUCCAACUUCUGGAAGAGGAGAAUAAAGAGCGUGCUAAAAGAGAAAUGGUC,0.43 ratio
UUUAUCGCAGCAGUUGAUCUAGAUGAGAUGCCAUUCACUUUUACUGAGCUACAGAAAAGCACCGAAACCAGUGUCUAUAAAUUCUUUGACUUAUUAAAAGAAAUCGAUACCAGUACCAAG,0.313 ratio
GUUGGUACCUCUGUAAAAACUUUAGUGUUAGCGUACAGCUCUGCAGUCUCCAGCAAAAUGGUCCGGCAGAUUUUAGAGCUUUGUCCUAACCUGGAACAUCUGGAUCUUACCCAGACCGAC,0.552 ratio
CAGAAUGGAGCUAUGGACGUUAAUUUGACCGUCUACUCCAAUCCCCGCCAAGAGACUGGCACCGCUGGACAUCCAACAUACCAAUUUUCUGCUAAUACAGGUCCUGCACAUUACAUGACU,0.361 ratio

# Some of these lines once more (block 2):
Sequence,E-score
AGGCTACT,0.0215
TAGTTACA,0.069
ACACTATA,0.261
AGATGAGG,-0.105
GTGCTCAA,-0.013
AATCTCCG,-0.191
